{"data": "Literature values that unrelated publications cite", "note": "Each line is one published result; not all experiments were run side by side. Numbers after ± are the reported error.", "chain of UniProt P12392 (whole entry, looked up)": "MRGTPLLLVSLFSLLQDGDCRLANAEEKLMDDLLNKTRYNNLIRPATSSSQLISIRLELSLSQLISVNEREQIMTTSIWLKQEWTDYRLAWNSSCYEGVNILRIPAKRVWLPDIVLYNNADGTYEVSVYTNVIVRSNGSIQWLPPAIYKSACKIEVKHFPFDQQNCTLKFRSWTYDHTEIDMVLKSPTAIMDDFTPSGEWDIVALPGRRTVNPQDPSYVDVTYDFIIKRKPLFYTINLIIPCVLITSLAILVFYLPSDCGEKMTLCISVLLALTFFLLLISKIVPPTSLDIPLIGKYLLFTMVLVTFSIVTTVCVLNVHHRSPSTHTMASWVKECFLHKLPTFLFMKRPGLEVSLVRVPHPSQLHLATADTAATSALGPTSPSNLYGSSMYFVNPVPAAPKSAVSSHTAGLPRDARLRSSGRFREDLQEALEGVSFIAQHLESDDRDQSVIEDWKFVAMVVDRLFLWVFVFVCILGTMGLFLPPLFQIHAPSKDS", "chain of UniProt P04757 (whole entry, looked up)": "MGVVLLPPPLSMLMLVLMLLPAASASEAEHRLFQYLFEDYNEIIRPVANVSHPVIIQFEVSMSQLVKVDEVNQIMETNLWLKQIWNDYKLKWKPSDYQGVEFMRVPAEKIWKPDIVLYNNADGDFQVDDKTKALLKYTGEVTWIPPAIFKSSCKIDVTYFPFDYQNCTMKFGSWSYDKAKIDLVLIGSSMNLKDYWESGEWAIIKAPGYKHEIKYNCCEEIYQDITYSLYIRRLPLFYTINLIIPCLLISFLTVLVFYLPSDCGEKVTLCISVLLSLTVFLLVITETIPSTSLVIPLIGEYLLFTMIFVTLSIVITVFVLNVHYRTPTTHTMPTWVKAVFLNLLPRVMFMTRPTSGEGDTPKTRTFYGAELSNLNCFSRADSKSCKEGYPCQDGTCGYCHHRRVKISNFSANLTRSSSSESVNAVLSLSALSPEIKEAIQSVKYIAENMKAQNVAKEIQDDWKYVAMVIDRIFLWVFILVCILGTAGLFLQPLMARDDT", "chain of UniProt G8XHD5 (whole entry, looked up)": "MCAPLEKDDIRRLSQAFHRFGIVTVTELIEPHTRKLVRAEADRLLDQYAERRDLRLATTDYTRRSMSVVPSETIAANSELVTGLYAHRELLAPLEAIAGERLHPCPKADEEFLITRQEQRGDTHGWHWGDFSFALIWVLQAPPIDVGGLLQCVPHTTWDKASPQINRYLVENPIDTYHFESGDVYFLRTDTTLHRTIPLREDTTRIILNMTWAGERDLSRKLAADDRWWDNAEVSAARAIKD"}
{"Structure (SMILES)": "NCCCC[C@H](N)C(=O)O", "target": "L-lysine 4-chlorinase (besD, Streptantibioticus cattleyicolor, UniProt G8XHD5)", "test": "equilibrium dialysis, HPLC", "conditions": "anaerobic, with: lysine", "quantity": "Kd", "value": "43 ± 3 µM"}
{"Structure (SMILES)": "O=C(NN1CCCCC1)c1nc(-c2ccc(Cl)cc2Cl)c(-c2ccc(Cl)cc2)s1", "target": "CB2 receptor", "test": "binding", "quantity": "Ki", "value": "5.84 µM"}
{"Structure (SMILES)": "C[N+](C)(C)[C@@H](Cc1c[nH]c(=S)[nH]1)C(=O)[O-]", "target": "EgtU substrate-binding domain Y390F", "test": "binding, isothermal titration calorimetry", "quantity": "Ka", "value": "1.36e+06 ± 700000 M⁻¹"}
{"Structure (SMILES)": "O=C(NN1CCCCC1)c1nn(-c2ccc(Cl)cc2Cl)c2c1CCc1cc(Cl)ccc1-2", "target": "CB1 receptor", "test": "binding", "quantity": "Ki", "value": "0.0148 µM"}
{"Structure (SMILES)": "CN1CCc2[nH]c3ccccc3c2CC1", "target": "Neuronal acetylcholine receptor; alpha3/beta4 (Rattus norvegicus, UniProt P04757+P12392)", "test": "inhibitor", "conditions": "with: 100 µM acetylcholine", "quantity": "IC50", "value": "70 ± 5 µM"}
{"Structure (SMILES)": "Cc1c(C(=O)NN2CCOCC2)nc(-c2ccc(Cl)cc2Cl)n1-c1ccc(Cl)cc1", "target": "CB2 receptor", "test": "binding", "quantity": "Ki", "value": "3.3 µM"}
{"Structure (SMILES)": "NCC1C=Nc2nc(N)[nH]c(=O)c21 (stereo not shown)", "target": "class I riboswitch, Can", "conditions": "second of two cooperative sites", "quantity": "Kd", "value": "0.461 µM"}
{"Structure (SMILES)": "O=C(NN1CCCCC1)c1nc(-c2ccc(Cl)cc2Cl)n(-c2ccc(Cl)cc2)n1", "target": "CB2 receptor", "test": "binding", "quantity": "Ki", "value": "3.56 µM"}
{"Structure (SMILES)": "C[C@]12CC[C@H](O)C[C@H]1CC[C@@H]1[C@@H]2C[C@@H](O)[C@]2(C)[C@@H](C3=CC(=O)OC3)CC[C@]12O", "target": "engineered lipocalin", "test": "literature value", "quantity": "Kd", "value": "0.0302 µM"}
{"Structure (SMILES)": "C=C(C)[C@H]1CN[C@H](C(=O)O)[C@H]1CC(=O)O", "target": "KAR", "test": "binding, ligand binding", "quantity": "Kd", "value": "0.016 µM"}
{"Structure (SMILES)": "O=C(O)CC(=O)C(=O)O", "target": "citrate synthase H262Q mutant", "test": "binding, fluorescence titration", "conditions": "20 °C", "quantity": "Kd", "value": "42 µM"}
{"Structure (SMILES)": "Cc1cccc(C)c1OCC(=O)N[C@@H](Cc1ccccc1)[C@H](O)C(=O)N1CSC(C)(C)[C@H]1C(=O)N[C@H]1c2ccccc2C[C@H]1O", "target": "Gag-Pol polyprotein, protease (gag-pol, Human immunodeficiency virus type 1 group M subtype B, UniProt P04585)", "test": "competition ITC", "quantity": "Kd", "value": "0.00014 µM"}
{"Structure (SMILES)": "NCCc1ccc(O)c(O)c1", "target": "Abcam antibody", "quantity": "Kd", "value": "~100 µM"}
